Experimental data collected from several papers.
Every numbered part comes from another study and shows a few of its results, in no order.

Set 1 — technique: universal PBM; molecule type: double-stranded DNA, one strand shown; matrix: in vitro; concentration: 600 nM; reading: higher = stronger binding
Target: Sal-like protein 4, full length isoform A (SALL4, Homo sapiens, UniProt Q9UJQ4, residues 1-1053)
Sequence of UniProt Q9UJQ4 (whole entry, looked up): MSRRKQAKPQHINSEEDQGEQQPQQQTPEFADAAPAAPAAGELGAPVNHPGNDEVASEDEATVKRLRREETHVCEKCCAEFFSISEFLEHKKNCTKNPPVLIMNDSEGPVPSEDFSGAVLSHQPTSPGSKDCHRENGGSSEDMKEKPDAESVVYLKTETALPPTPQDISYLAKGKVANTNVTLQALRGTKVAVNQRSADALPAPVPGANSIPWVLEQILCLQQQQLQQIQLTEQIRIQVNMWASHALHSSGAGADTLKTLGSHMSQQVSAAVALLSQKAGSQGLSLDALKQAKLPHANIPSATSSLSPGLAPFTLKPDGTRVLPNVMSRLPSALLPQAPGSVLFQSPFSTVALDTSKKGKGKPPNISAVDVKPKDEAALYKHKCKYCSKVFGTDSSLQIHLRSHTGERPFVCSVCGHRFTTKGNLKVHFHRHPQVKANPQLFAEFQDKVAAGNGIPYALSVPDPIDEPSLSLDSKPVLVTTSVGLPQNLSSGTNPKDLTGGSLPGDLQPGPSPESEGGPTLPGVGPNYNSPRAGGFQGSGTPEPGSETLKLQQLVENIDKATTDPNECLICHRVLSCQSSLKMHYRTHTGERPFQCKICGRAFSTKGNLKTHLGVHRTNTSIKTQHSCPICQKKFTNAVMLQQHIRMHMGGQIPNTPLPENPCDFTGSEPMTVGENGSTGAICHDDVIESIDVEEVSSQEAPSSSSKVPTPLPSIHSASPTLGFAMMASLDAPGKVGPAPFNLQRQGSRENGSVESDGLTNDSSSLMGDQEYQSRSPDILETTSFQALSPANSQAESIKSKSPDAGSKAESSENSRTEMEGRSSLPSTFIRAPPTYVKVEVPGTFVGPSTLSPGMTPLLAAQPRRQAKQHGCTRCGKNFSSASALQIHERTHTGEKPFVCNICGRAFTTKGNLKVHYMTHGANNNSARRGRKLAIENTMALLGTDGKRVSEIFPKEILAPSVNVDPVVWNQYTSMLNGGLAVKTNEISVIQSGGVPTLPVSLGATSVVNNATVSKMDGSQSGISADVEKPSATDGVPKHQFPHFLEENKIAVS
Setting: 8-mer, flanks averaged, mean of replicates
Strand | E-score
AATAATTC | 0.422
AGTGAGGA | 0.0387
GGCCTACC | -0.309
GTCCTAAA | 0.046
ACCAGTCT | -0.215
ACTGCCCA | -0.194
GGACAAGA | -0.0145
AGCAAAAG | -0.00461
AAACCGTC | -0.0876
AAAGCGTT | 0.0743
GCCTGAGC | -0.271
CTCCCCTA | -0.0956
ACTACCTA | 0.109
CCCAGTAG | -0.0937
AACCTAAG | -0.0224
CATACCTA | 0.0401
ACTTCCAA | 0.0409
AATCAACT | 0.125
CGCGTCTA | 0.00286
CCGGGAAA | -0.196
GGCAGGAC | -0.378
AGGGATGC | -0.184
ACATCCCC | -0.161
CCCATATC | 0.118
AGCTGTAG | -0.0241

Set 2 — technique: RNA Bind-n-Seq; molecule type: RNA; matrix: in vitro; concentration: 1 µM; setting: whole 134-nt RNA, ends assumed; added: 150 mM KCl; relative to: input library; reading: higher = stronger binding
Target: Ras GTPase-activating protein-binding protein 1, C-terminal RGG region (G3BP1, Homo sapiens, UniProt Q13283)
Sequence of UniProt Q13283 (whole entry, looked up): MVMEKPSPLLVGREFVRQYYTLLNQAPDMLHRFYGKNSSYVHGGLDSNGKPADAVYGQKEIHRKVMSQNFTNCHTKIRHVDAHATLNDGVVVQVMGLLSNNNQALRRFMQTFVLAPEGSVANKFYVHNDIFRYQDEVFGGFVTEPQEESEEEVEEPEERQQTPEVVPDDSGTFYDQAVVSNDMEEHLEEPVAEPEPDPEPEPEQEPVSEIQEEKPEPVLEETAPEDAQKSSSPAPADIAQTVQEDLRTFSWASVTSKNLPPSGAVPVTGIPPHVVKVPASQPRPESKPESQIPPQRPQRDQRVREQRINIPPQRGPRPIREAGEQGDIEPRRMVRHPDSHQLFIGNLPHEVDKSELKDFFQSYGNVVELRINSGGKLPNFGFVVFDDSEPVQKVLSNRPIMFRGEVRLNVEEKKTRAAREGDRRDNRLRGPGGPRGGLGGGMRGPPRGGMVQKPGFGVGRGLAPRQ
Constant ends, left off below: GGGAGUUCUACAGUCCGACGAUC … UGGAAUUCUCGGGUGUCAAGG
Strand | log2 enrichment
CUGUGCUACACAUCGUAUGUACCGAAUCGGUUUUUUUGGGUUUUUUUGGGGUUUUUUUGGGGAAAGUAUUAUGUUACGCCGUUCGGAUCU | -1
GUCCUGUGCUACACAUCGUAUGUACCGAAUCGGGAAAAAAAGGGAGGGUUUUUUUGGGAAAGUAUUAUGUUACGCCGUUCGGAUCUGCAC | 0.205
UGGGAGGUGGAUUUUGUUUAUUUUUUUAGCUCAUUUCCAGGGGUGGGAAUUUUUUUUUAAUAUGUGUCAUGAAUAAAGUUGUGUUUGAAA | 3.66
ACCAUGCAGGUGGGAAUCUUUGGGAAGUGGGGCAAGGGGGGGAUAGGGAGGGGGGUAACACUUUGGGAACAGGUGGUCCCAGGUCGUUUC | -1.48
UGGGAGGUGGAUUUUGUUUAUUUUUUUAGCUCAUUUCCAGGGGUGUGAAUUUUUUUUUAAUAUGUGUCAUGAAUAAAGUUGUUUUUGAAA | 3.1
UAACUUUAGAGGAGGAUCUGAUGGAUAUGGCAGUGGACGUGGAUUUGGGGAUGGCUAUAAUGGGUAUGGAAGAGGACCUGGAGGUGGCAA | -0.516
UCCUGUGCUACACAUCGUAUGUACCGAAUCGGGUUUUUGGGUUUUUUUGGGAAAAAGGGAAAGUAUUAUGUUACGCCGUUCGGAUCUGCA | -0.555
GUCCUGUGCUACACAUCGUAUGUACCGAAUCGGGUUUUUGGGAAAGGGAAAAAAAGGGAAAGUAUUAUGUUACGCCGUUCGGAUCUGCAC | -0.821
GCCUGGCGCUGGCCAACAAUAGCACCCUCACCAUUGGCACCAUCGAUGAGAUCCAGAAGCUGCACAUUCGCACAGUUCCCCUCUAUGAGU | 1.49

Set 3 — technique: protein binding microarray; molecule type: double-stranded DNA, one strand shown; matrix: in vitro; concentration: not given; relative to: not given; reading: higher = stronger binding
Target: Histone acetyltransferase KAT6A, winged helix 2, GST fusion (KAT6A, Homo sapiens, UniProt Q92794, residues 85-181)
Setting: 8-mer, flanks averaged, mean of 2 arrays, mostly near background
Construct (chain): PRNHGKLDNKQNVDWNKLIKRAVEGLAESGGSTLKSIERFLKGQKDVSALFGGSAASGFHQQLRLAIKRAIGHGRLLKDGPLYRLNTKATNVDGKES
Strand | E-score
CGCTGTTA | -0.122
CGCTACCG | -0.00379
CTAGAACA | 0.0748
CGGCAACA | 0.0753
AGGACAGC | 0.0549
ATAGGATA | -0.084
ACGGGCCA | 0.0659
CAATCACA | -0.00847
ATGTCCGG | 0.0207
GCTTTTTA | 0.111
CACTTCCC | -0.0332
AGAAACAT | 0.094
ATCTCATC | -0.192
AAGTAGTG | -0.219
CCCGCTCG | 0.0501
ATCAATAG | -0.0278
AGGGAGGG | 0.0929
AACGTACG | -0.249
GAACTGTC | -0.0868
CGAGGTTA | 0.000265
ACCTTCGC | 0.083
GGATACGA | -0.0735
AAACAGAG | 0.0344
CACGACGG | 0.0415
AAAATTGG | -0.159

Set 4 — technique: RNA Bind-n-Seq; molecule type: RNA; matrix: in vitro; concentration: 365 nM; relative to: no-protein control; reading: higher = stronger binding
Target: RNA binding protein fox-1 homolog 2, RRM domain, GST-SBP tag (RBFOX2, Homo sapiens, UniProt O43251-10, residues 100-194)
Setting: natural RNA segment, single round, ends assumed
Constant ends, left off below: GGGAGUUCUACAGUCCGACGAUC … UGGAAUUCUCGGGUGCCAA
Construct (chain): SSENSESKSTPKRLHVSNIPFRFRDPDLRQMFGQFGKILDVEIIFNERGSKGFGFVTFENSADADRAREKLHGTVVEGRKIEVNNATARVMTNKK
Strand | RBNS enrichment (R)
UUACAUCUGGGAUACAGUCUAACUCAUCUGAUUUAAUAUGCAUUUAAAAAAAUGCCAUAACUAUUAAACACCUUGUUUACAGACAGAUGAAAUAAAUUUAUUCCAACCAA | 0.282
AAUAAUAACAACAAAAAAGCUUUGUUUAGUCUUUGUUUUGUUUUCCAGGACAAAAACAAGCUUCCCUAAGCUUGAAUUUAUAGUUAUAAAAUGAAAACAAAACCAAAAAA | 0.45
CCUGAUCUUUAACAAAGCAUUAAUAAUUCUAAGGAUAAUCUCUAUUUUGUUGUGCUUUUUUGUAACUGUUUUAAAUAAAUCAAUUUGUACUGUAUAUUUGUACUUUUGUG | 0.726
ACAGUUGACAGCGUUCUGAAAAGAUGCCAUUUGUUUCCUUCUGAUCUCUCACUGAAUAAUGUUUACUGUACAGUCUUCCCAAGGUGAUUCCUGCGACUGCAGGCACUGGU | 0.224
GAGCAAGUGACCGUUGAGGACAGGUGAUGUGAAUGUUUGUUCUAGAUUUAAUUCAGUUUUCUGAAUGGACACAGGGAGUUGGGAGUAUGUGUGUGUGUGUGUGUGUGUGU | 21.9
GCGGAAUGUAAGAUACGUCUCUAUGCCAAAUGGAGUUGUAGAAUGUACCCUCUCAGCCCAUAAACAGGAGGAAACCAUAUGUGAACACUACAGCCUCUGGCGAGGGCUCU | 0.541
GCACAACCUUCUGACACGUGCCCUGUCUGAAGGUCGGAGUCACCAAUGUCCCUUCCAUUCAUCUCCCUUCCCCACGUGUGCUGCACAUCCCCAGACCAAAGAGGUUCUCG | 0.734
GAGCCACUUUAUCUCCUUUUGGCAAUCUGAGUAGGCGGGGAACCUAGGCAGGGCUGGCUUUCUUAGCGUGUAACUUGUGUAGCAGCACAGGGCCCACACUUAGAAGGACC | 0.403

A few entries again (set 4):
Strand | RBNS enrichment (R)
UUACAUCUGGGAUACAGUCUAACUCAUCUGAUUUAAUAUGCAUUUAAAAAAAUGCCAUAACUAUUAAACACCUUGUUUACAGACAGAUGAAAUAAAUUUAUUCCAACCAA | 0.282
ACAGUUGACAGCGUUCUGAAAAGAUGCCAUUUGUUUCCUUCUGAUCUCUCACUGAAUAAUGUUUACUGUACAGUCUUCCCAAGGUGAUUCCUGCGACUGCAGGCACUGGU | 0.224
GAGCCACUUUAUCUCCUUUUGGCAAUCUGAGUAGGCGGGGAACCUAGGCAGGGCUGGCUUUCUUAGCGUGUAACUUGUGUAGCAGCACAGGGCCCACACUUAGAAGGACC | 0.403
GCGGAAUGUAAGAUACGUCUCUAUGCCAAAUGGAGUUGUAGAAUGUACCCUCUCAGCCCAUAAACAGGAGGAAACCAUAUGUGAACACUACAGCCUCUGGCGAGGGCUCU | 0.541
